# Published values from different studies.
# Parts stem from different laboratories: compare values within a part only.
# UniProt Q05655, sequence (whole entry, looked up): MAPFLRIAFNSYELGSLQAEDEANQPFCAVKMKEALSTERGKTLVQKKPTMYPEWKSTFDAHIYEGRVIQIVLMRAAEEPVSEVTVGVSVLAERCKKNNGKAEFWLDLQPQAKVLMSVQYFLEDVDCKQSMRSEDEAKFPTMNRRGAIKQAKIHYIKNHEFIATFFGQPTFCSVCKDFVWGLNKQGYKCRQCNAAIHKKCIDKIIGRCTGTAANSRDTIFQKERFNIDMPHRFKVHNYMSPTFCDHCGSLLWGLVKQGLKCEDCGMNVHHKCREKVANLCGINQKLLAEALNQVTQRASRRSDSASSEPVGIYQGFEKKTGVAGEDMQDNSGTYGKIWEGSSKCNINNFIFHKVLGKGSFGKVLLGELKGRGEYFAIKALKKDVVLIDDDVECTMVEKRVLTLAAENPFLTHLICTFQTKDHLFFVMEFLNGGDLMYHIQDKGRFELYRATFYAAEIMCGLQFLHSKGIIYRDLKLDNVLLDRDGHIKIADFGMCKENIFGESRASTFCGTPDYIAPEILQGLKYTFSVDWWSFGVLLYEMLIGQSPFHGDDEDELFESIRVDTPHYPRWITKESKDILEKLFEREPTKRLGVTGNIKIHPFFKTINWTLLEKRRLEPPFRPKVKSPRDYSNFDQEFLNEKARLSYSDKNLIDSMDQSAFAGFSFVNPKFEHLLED
# UniProt P29597, sequence (whole entry, looked up): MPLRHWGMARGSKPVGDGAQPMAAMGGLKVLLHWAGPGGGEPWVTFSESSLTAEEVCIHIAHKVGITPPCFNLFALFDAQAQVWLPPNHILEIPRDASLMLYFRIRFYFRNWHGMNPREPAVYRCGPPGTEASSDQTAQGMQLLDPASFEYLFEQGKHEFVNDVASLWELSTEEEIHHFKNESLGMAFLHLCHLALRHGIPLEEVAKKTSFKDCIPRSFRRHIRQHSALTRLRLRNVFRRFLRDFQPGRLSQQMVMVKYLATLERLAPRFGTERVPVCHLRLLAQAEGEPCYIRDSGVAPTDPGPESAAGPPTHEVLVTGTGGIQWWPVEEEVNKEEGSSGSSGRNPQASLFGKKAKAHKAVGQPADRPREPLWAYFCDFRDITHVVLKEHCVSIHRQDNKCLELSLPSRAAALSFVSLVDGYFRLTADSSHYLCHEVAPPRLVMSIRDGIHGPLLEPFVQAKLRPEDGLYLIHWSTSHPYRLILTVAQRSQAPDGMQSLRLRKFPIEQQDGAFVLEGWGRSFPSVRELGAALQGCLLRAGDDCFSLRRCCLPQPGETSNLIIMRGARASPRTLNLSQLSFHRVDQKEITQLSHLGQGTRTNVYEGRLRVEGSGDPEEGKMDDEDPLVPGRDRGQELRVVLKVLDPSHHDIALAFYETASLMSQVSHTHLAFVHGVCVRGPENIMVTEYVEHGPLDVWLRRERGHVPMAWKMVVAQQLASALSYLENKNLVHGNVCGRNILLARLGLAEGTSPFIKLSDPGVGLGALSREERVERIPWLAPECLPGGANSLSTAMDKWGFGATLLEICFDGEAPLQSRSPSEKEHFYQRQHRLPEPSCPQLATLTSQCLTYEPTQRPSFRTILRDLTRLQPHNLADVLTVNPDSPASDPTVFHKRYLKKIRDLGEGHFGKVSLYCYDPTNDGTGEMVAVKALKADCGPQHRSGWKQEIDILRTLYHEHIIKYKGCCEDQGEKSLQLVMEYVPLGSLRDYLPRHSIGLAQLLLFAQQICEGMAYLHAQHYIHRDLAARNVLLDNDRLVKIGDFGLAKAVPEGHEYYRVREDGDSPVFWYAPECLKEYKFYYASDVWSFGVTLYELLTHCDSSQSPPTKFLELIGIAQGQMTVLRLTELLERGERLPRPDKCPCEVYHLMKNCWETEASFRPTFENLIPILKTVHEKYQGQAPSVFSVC
# UniProt P54760, sequence (whole entry, looked up): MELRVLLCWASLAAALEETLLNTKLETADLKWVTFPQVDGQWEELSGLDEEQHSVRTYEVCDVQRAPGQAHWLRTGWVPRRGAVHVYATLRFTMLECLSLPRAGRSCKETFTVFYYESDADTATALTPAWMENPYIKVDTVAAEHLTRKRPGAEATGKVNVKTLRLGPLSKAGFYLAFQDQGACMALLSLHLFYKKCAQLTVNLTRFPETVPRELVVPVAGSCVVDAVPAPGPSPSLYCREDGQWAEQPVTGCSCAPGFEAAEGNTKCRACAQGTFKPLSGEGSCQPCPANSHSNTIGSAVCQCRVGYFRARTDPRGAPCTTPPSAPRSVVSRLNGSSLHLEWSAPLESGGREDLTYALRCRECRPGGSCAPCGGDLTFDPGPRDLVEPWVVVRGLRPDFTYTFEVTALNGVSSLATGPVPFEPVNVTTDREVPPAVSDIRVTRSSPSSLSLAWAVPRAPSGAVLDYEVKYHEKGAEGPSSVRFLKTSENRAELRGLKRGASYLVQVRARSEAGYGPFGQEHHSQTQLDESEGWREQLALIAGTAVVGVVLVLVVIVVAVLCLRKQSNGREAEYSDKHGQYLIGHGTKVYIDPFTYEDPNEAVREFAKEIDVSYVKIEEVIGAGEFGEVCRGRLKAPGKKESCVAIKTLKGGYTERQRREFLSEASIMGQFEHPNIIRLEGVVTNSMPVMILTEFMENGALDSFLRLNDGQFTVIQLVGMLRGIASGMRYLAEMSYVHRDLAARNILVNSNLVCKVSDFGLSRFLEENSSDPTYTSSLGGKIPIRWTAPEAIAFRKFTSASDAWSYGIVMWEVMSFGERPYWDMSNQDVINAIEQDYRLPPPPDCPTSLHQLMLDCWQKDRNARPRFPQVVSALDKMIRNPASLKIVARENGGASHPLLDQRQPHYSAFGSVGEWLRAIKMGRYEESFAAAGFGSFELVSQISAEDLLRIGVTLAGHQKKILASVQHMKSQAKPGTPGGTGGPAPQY
# UniProt P50750, sequence (whole entry, looked up): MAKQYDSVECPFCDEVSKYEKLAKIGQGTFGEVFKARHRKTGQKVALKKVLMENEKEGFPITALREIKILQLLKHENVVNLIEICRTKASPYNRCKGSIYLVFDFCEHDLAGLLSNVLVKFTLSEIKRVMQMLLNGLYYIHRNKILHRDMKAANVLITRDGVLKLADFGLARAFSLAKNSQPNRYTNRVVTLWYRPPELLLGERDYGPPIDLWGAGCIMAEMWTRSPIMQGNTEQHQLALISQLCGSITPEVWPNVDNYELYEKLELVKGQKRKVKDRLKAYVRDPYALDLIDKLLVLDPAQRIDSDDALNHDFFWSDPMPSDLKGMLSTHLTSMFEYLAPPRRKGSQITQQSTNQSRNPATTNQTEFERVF
# UniProt P57058, sequence (whole entry, looked up): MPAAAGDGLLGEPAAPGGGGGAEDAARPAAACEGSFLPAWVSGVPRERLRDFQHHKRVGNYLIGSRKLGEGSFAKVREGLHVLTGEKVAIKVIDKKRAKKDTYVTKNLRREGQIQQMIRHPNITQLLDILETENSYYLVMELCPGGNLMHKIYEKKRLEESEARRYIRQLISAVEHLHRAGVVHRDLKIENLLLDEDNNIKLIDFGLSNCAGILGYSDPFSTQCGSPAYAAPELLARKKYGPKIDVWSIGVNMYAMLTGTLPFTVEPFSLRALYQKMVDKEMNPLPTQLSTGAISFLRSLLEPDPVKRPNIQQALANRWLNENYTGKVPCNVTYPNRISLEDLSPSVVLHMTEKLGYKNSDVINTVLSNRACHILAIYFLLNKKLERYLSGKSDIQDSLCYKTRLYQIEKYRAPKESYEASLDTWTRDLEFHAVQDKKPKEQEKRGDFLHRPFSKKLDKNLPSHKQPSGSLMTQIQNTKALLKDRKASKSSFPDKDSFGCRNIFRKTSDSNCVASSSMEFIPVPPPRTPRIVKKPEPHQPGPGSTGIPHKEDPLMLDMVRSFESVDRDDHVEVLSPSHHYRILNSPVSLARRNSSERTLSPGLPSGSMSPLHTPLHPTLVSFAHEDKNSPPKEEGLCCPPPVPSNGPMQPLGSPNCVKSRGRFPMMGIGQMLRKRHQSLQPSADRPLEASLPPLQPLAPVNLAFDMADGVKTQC
# UniProt Q9NYY3, sequence (whole entry, looked up): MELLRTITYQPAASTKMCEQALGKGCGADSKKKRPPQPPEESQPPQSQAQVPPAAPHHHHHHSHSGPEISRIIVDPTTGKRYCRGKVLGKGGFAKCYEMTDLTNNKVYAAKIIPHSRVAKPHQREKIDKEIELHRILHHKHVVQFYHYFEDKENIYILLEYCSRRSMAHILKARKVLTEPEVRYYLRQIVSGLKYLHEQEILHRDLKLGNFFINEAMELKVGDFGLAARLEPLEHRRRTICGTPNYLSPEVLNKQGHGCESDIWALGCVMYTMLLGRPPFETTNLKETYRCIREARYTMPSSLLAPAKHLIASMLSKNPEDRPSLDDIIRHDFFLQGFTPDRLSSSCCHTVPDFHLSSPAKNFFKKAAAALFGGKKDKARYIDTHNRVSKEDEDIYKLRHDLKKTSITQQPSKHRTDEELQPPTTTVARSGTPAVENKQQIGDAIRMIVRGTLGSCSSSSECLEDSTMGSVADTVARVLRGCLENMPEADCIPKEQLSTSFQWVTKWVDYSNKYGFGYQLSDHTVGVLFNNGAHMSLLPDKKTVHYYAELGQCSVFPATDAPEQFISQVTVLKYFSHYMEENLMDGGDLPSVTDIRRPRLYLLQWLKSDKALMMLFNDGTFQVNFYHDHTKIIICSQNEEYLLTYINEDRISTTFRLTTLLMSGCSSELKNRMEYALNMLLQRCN
# UniProt P48729, sequence (whole entry, looked up): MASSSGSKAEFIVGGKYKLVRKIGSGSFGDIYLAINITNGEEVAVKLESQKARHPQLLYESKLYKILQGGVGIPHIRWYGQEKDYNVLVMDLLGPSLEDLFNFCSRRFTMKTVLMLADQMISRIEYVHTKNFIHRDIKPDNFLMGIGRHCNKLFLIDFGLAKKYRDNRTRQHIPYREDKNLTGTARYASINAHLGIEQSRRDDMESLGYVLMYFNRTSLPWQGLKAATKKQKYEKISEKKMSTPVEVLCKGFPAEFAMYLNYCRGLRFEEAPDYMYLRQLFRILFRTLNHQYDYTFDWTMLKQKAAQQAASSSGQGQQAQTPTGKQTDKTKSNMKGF

# Block 1
# SMILES: CCCCc1c(-c2ccc(O)cc2)[nH]c2nccnc12
# Observed: enzyme activity
# Mode: inhibitor
# Tested at: 0.5 µM
# Baseline: control
target,remaining activity [%]
"CSNK1A1 (Homo sapiens, UniProt P48729)",92.9
"MAPK13 (Homo sapiens, UniProt O15264)",101
"LYN (Homo sapiens, UniProt P07948)",87.3
"PLK2 (Homo sapiens, UniProt Q9NYY3)",83.9
"PRKCI (Homo sapiens, UniProt P41743)",99.4
"MKNK2 (Homo sapiens, UniProt Q9HBH9)",107
"LRRK2 (Homo sapiens, UniProt Q5S007)",80
"Cyclin-dependent kinase 9, with cyclin T1 (CDK9, Homo sapiens, UniProt P50750)",45.9
"MAP2K6 (Homo sapiens, UniProt P52564)",100
"CSNK2A1 (Homo sapiens, UniProt P68400)",95.9
"MAP3K10 (Homo sapiens, UniProt Q02779)",74.3
"AKT3 (Homo sapiens, UniProt Q9Y243)",95.8
"EPHA5 (Homo sapiens, UniProt P54756)",96.4
"CHEK1 (Homo sapiens, UniProt O14757)",92.9
"MAP4K2 (Homo sapiens, UniProt Q12851)",28.2
"NEK4 (Homo sapiens, UniProt P51957)",82.2
"IRAK4 (Homo sapiens, UniProt Q9NWZ3)",159
"KIT (Homo sapiens, UniProt P10721)",80.8
"PRKCD (Homo sapiens, UniProt Q05655)",102
"BTK (Homo sapiens, UniProt Q06187)",61.7

# Block 2
# Species: mouse
# Sample: microsomes or S9
# Tested at: 2 µM
# Time: 0.5 h
SMILES,remaining compound
COC(=O)c1c(C)n(C(C)=O)c2ccc(NS(=O)(=O)c3ccc(F)cc3F)cc12,0.544%
Nc1ccc2oc(=O)c3c(c2c1)CC(C(F)(F)F)S3 (stereo not shown),38.2%
CN1C(=O)c2cccc3c2C1=Cc1ccc2ccccc2c1O3,52.8%
CCc1nnc(NCc2ccccc2F)c2cc3sc(C)cc3n12,2.36%
Cc1nc(N2CCN(c3ccccn3)CC2)nc2c1C(=O)CC(c1cccc(Cl)c1)C2 (stereo not shown),86.1%
O=C(C(Nc1ccc(N2CCCS2(=O)=O)cc1)c1ccccc1)N1CCCC1 (stereo not shown),44.2%
O=C(c1c(OCC2CC2)cc(=O)n2c1CCOCC2)N1CCN(c2ccccc2)CC1,41%
COc1ccc(Cn2c(-c3c(C)n[nH]c3-c3ccccc3)nc3ccccc32)cc1,1.52%

# Block 3
# Organism: Plasmodium berghei
# Mode: inhibitor
# Cells: Huh-7
# Strain: liver stage
# Tested at: 10 µM
# Time: 24 h
# Baseline: untreated control
Compound,infection rate
C[C@]12CCC(=O)C=C1CC[C@@H]1[C@@H]2[C@@H](O)C[C@@]2(C)[C@H]1CC[C@]2(O)C(=O)COP(=O)(O)O,98.8%
CCC[C@@H]1C[C@@H](C(=O)N[C@@H]([C@H]2O[C@H](SC)[C@H](O)[C@@H](O)[C@H]2O)[C@@H](C)O)N(C)C1,106%
CCn1cc(C(=O)O)c(=O)c2cc(F)c(N3CCNC(C)C3)c(F)c21 (stereo not shown),99.4%
O=C1[C@H](CC[C@H](O)c2ccc(F)cc2)[C@@H](c2ccc(O)cc2)N1c1ccc(F)cc1,108%
CC(C)Cc1ccc(C(C)C(=O)O)cc1 (stereo not shown),109%
CCOc1ccc2ccccc2c1C(=O)N[C@@H]1C(=O)N2[C@@H]1SC(C)(C)[C@@H]2C(=O)O,96.5%
CC1(C)O[C@@H]2C[C@H]3[C@@H]4C[C@H](F)C5=CC(=O)CC[C@]5(C)[C@H]4[C@@H](O)C[C@]3(C)[C@]2(C(=O)CO)O1,96.9%
O=C1OC2(c3ccc(O)cc3Oc3cc(O)ccc32)c2ccccc21,102%
CC(C)[C@H]1CC[C@H](C(=O)N[C@H](Cc2ccccc2)C(=O)O)CC1,127%

# Block 4
# Structure (SMILES): COc1ccc2c(O[C@@H]3C[C@H]4C(=O)N[C@]5(C(=O)O)CC5/C=C\CCCCC[C@H](NC(=O)OC5CCCC5)C(=O)N4C3)cc(-c3csc(NC(=O)C(C)C)n3)nc2c1C (stereo partly shown)
# Tested at: 1 µM
target,observed,technique,notes,baseline,remaining binding
"EPHB4 (Homo sapiens, UniProt P54760)",cell-free assay,competition with immobilised ligand,,,100%
"PRKD1 (Homo sapiens, UniProt Q15139)",cell-free assay,competition with immobilised ligand,,,89%
"Tyrosine-protein kinase ABL1, phosphorylated (ABL1, Homo sapiens, UniProt P00519, T315I)",cell-free assay,competition with immobilised ligand,,,87%
"Ribosomal protein S6 kinase alpha-1, C-terminal kinase domain (RPS6KA1, Homo sapiens, UniProt Q15418)",cell-free assay,competition with immobilised ligand,,,100%
"AXL (Homo sapiens, UniProt P30530)",cell-free assay,competition with immobilised ligand,,,97%
"HUNK (Homo sapiens, UniProt P57058)",cell-free assay,competition with immobilised ligand,,,100%
"SIK3 (Homo sapiens, UniProt Q9Y2K2)",cell-free assay,competition with immobilised ligand,,,97%
"RET (Homo sapiens, UniProt P07949, V804L)",cell-free assay,competition with immobilised ligand,,,95%
"CDK3 (Homo sapiens, UniProt Q00526)",cell-free assay,competition with immobilised ligand,,,100%
"MAPK10 (Homo sapiens, UniProt P53779)",cell-free assay,competition with immobilised ligand,,,71%
"MAST1 (Homo sapiens, UniProt Q9Y2H9)",cell-free assay,competition with immobilised ligand,,,98%
"ABL1 (Homo sapiens, UniProt P00519, F317I)",,KINOMEscan,"F317I mutant, nonphosphorylated",control,90%
"CASK (Homo sapiens, UniProt O14936)",cell-free assay,competition with immobilised ligand,,,97%
"MAP3K13 (Homo sapiens, UniProt O43283)",cell-free assay,competition with immobilised ligand,,,86%
"Non-receptor tyrosine-protein kinase TYK2, JH2 (TYK2, Homo sapiens, UniProt P29597)",cell-free assay,competition with immobilised ligand,,,74%

# A few entries again (block 4):
target,observed,technique,notes,baseline,remaining binding
"Tyrosine-protein kinase ABL1, phosphorylated (ABL1, Homo sapiens, UniProt P00519, T315I)",cell-free assay,competition with immobilised ligand,,,87%
"Ribosomal protein S6 kinase alpha-1, C-terminal kinase domain (RPS6KA1, Homo sapiens, UniProt Q15418)",cell-free assay,competition with immobilised ligand,,,100%
"AXL (Homo sapiens, UniProt P30530)",cell-free assay,competition with immobilised ligand,,,97%
"HUNK (Homo sapiens, UniProt P57058)",cell-free assay,competition with immobilised ligand,,,100%
"SIK3 (Homo sapiens, UniProt Q9Y2K2)",cell-free assay,competition with immobilised ligand,,,97%
"RET (Homo sapiens, UniProt P07949, V804L)",cell-free assay,competition with immobilised ligand,,,95%
"CDK3 (Homo sapiens, UniProt Q00526)",cell-free assay,competition with immobilised ligand,,,100%
"MAPK10 (Homo sapiens, UniProt P53779)",cell-free assay,competition with immobilised ligand,,,71%
